# Measurements from different studies.
# Each line is one published result; not all experiments were run side by side. “And” joins repeats or separate records; there may be more than shown. Numbers after ± are the reported error.
Structure (SMILES),assay,system,setting,scale,measurement,value
C=CC(=O)Nc1cc(Nc2nccc(-c3cn(C)c4ccccc34)n2)c(OC)cc1N(C)CCNC,,"human, dried blood spots","10 d, on ice, high QC level",,remaining compound,69.6%
CN1C(=O)[C@@H](Cc2ccc(O)c(I)c2)NC(=O)CNC(=O)[C@H](Cc2ccc3ccccc3c2)NC(=O)[C@H](CCCNC(=N)N)NC(=O)[C@H]1CCCNC(=O)c1ccc(CNC(=O)CN2CCN(CC(=O)O)CCN(CC(=O)O)CCN(CC(=O)O)CC2)cc1 [lutetium-177 labelled],"extrapolation method 1, OLINDA/EXM, item: 177Lu radioactivity","human, extrapolated from mice, heart wall",,,absorbed dose coefficient,0.0085 mGy/MBq
COc1ccc2c(c1)CCn1c[n+]3c(c1-2)-c1ccc(OC)cc1CC3,,"female NSG mice, blood","6 mg/kg, day 20, 5 days per week",,mean platelet volume,5.58 ± 0.17 fL
COc1ccc(OC(C)=O)cc1-c1c[nH]c2ncc(-c3cncc(C(=O)N(C)C)c3)cc12,HPLC,,"50 µM, 37 °C, no lysine, followed to 24 h",,hydrolytic half-life,> 1440 min
C=C(NC(=O)c1csc(-c2nc3c(cc2O)-c2nc(cs2)C(=O)NC(C(C)O)C(=O)NC(=C(C)OC)c2nc(cs2)C(=O)NC2c4nc(cs4)C(=O)NC(COC(=O)c4c5c6c(cccc6n4O)COC(=O)C(OC4CC(C)(O)C(N(C)C)C(C)O4)C2OC5)c2nc-3cs2)n1)C(N)=O (centres unmarked),,"male cynomolgus monkey, plasma","intravenous, 3 mg/kg, single dose, infusion",,Cmax,12400 ng/mL
CN1CCC[C@]1(C)/C=C/S(=O)(=O)NC(=O)Nc1c2c(cc3c1CCC3)CC=C2,,"human, plasma","oral, 50 mg twice daily of parent drug, day 1, metabolite of dosed drug",,AUC(0-24),324 µg·h/mL
C/C(N)=N/C(=N\S(=O)(=O)c1ccc(C(F)(F)F)cc1)N1C[C@H](c2ccccc2)C(c2ccc(Cl)cc2)=N1,,"male C57BL/6 mouse, brain","oral, 10 mg/kg",,half-life,504 min
CN([O-])C(=O)CN1CCN(CC(=O)N(C)[O-])CCN(Cc2ccccn2)CC1.[89Zr+4],,"mouse, bone","intravenous, 4 h",,tracer uptake,5.17 %ID/g
N=C(N)NCCC[C@@H]1NC(=O)[C@H](CO)NC(=O)[C@@H](NC(=O)[C@H](CO)NC(=O)[C@H](CO)NC(=O)[C@H](Cc2c[nH]c3ccccc23)NC(=O)CNC(=O)[C@H](CO)NC(=O)[C@@H](N)Cc2c[nH]c3ccccc23)CSSC[C@@H](C(=O)NCC(=O)O)NC(=O)[C@H](CO)NC1=O,LC-MS/MS,"human, cerebrospinal fluid","dose not given, lumbar puncture after treatment",,CSF concentration,not detected
CCCC[C@H]1C(=O)N(C)[C@@H](CCCC)C(=O)N[C@@H](CCCCNC(=S)Nc2ccc(CN3CCN(CC(=O)O)CCN(CC(=O)O)CC3)cc2)C(=O)N[C@H](C(=O)NCC(N)=O)CSCC(=O)N[C@@H](Cc2ccc(O)cc2)C(=O)N(C)[C@@H](C)C(=O)N[C@@H](CC(N)=O)C(=O)N2CCC[C@H]2C(=O)N[C@@H](Cc2cnc[nH]2)C(=O)N[C@@H](CCC(=O)O)C(=O)N2C[C@H](O)C[C@H]2C(=O)N[C@@H](Cc2c[nH]c3ccccc23)C(=O)N[C@@H](CO)C(=O)N[C@@H](Cc2cn(CC(=O)O)c3ccccc23)C(=O)N1C [fluorine-18 labelled],"PET, item: PD-L1","huCD34 mouse A-375 xenograft, whole tumour plane",pretreatment,,SUV,< 2 SUV
O=C(NS(=O)(=O)c1cccs1)c1cc2ccccc2n1Cc1ccc(Br)c2ccccc12,,"Sprague-Dawley rat, male","intravenous, dose not given, 1 h",,plasma concentration,184 ng/mL
CN(C)C(=O)c1cccc(N2Cc3cn(Cc4cccc(F)c4)nc3C2)c1,metabolic stability,"human, liver microsomes",,,half-life,100 min
CC(=O)N[C@H](CC(=O)O)C(=O)N[C@H](Cc1c[nH]c2ccccc12)C(=O)N[C@H](Cc1ccccc1)C(=O)N[C@H](CCCCN)C(=O)N[C@H](C)C(=O)N[C@H](Cc1ccccc1)C(=O)N[C@H](Cc1ccc(O)cc1)C(=O)N[C@H](CC(=O)O)C(=O)N[C@H](CCCCN)C(=O)N[C@@H](C(=O)N[C@H](C)C(=O)N[C@H](CCC(=O)O)C(=O)N[C@H](CCCCN)C(=O)N[C@H](Cc1ccccc1)C(=O)N[C@H](CCCCN)C(=O)N[C@H](CCC(=O)O)C(=O)N[C@H](C)C(=O)N[C@H](Cc1ccccc1)C(N)=O)C(C)C,,"human, plasma",concentration not given,,time to return to baseline,≥ 8 h
Cc1noc(C)c1Cn1cc(N2C(=O)CN(Cc3cccc(O[C@@H]4O[C@H](C(=O)O)[C@@H](O)[C@H](O)[C@H]4O)c3)C2=O)cn1,,"Sprague-Dawley rat, male","oral, 30 mg/kg of parent drug, 12 h",,plasma concentration,105 ng/mL
O=C(Nc1cnccc1-c1ccc([18F])cc1)c1ccnc(NC(=O)C2CC2)c1,,"mice, transgenic, GSK-3β, early-stage, hippocampus","intravenous, dose not given, 120 min",,SUV,0.03
CC[C@H](C)[C@@H]1NC(=O)[C@H](Cc2ccc(O)cc2)NC(=O)CCCSC[C@@H](C(=O)N(CC(=O)N[C@@H](CC(C)C)C(=O)NCC(N)=O)Cc2ccc(F)cc2)NC(=O)[C@H](CC(N)=O)NC(=O)[C@H](CCC(N)=O)NC1=O,,"human, urine","intravenous, 20 µg",relative to: dose,maximum undetected urinary excretion,≤ 0.5%
CCCCN1C(=O)c2cccc3c(NCCN4CCOCC4)ccc(c23)C1=O,,dichloromethane,,,fluorescence quantum yield,0.16
CN(CCNCc1ccncc1O)CCNCc1ccncc1O,potentiometric titration,aqueous KCl solution,"1 mM, 25 °C, 0.1 M KCl",,protonation constant logK4H,3.6
Cc1nc(N)nc2c1C(=O)N[C@@H](c1ccc(F)cc1-c1cccc(O[11CH3])n1)C2,ex vivo biodistribution,"mice, U87 subcutaneous xenograft, lungs","60 min post-injection, baseline, vehicle pre-treatment",,SUV,2 ± 0.4
CC(C)(O)c1ncc([S@](N)(=O)=NC(=O)Nc2c3c(cc4c2CCC4)CCC3)s1,item: infections and infestations,healthy human,"oral, 30 mg, 14 days, CS formulation, once daily",,subjects with TEAEs,17%
CN1CCC[C@]1(C)/C=C/S(=O)(=O)NC(=O)Nc1c2c(cc3c1C(O)CC3)CCC2 (some centres unmarked),,"human, plasma","oral, 12.5 mg twice daily of parent drug, day 14, metabolite of dosed drug",,AUC(0-24),61.7 µg·h/mL
N[C@@H](CC(=O)O)C(=O)OC(C(=O)O)c1ccc(Br)cc1[N+](=O)[O-] (mixture of isomers),"1H NMR, dark",50 mM sodium phosphate,"concentration not given, pH 7.0, room temperature, 12.5% DMSO-d6",,"hydrolysis half-life, B isomer",1110 ± 12 min
CC(C)C[C@H](NC(=O)[C@@H](CCCCNC(=O)[C@@H](Cc1ccccc1)NC(=O)CCCCCCCNC(=O)CN1CCN(CC(=O)O)CCN(CC(=O)O)CCN(CC(=O)O)CC1)NC(=O)[C@H](Cc1ccc(O)cc1)NC(=O)[C@H](CO)NC(=O)[C@H](Cc1c[nH]c2ccccc12)NC(=O)[C@H](Cc1c[nH]cn1)NC(=O)[C@@H]1CCC(=O)N1)C(=O)N[C@@H](CCCNC(=N)N)C(=O)N1CCC[C@H]1C(=O)NCC(N)=O [indium-111 labelled],biodistribution,"male athymic nude mice, DU-145 prostate cancer xenograft, tumor","intravenous, 0.037 MBq, 1 h post-injection",,tissue uptake,0.88 ± 0.2 %ID/g
CCN(CC)c1ccc2c(c1)O[B-]1(c3ccc(C)cc3)OC(=O)C(c3ccccc3)=N[N+]1=C2 (centres unmarked),UV/vis decay,aqueous buffer,,,hydrolysis activation energy,22.2 kcal/mol
CC(=O)N([O-])CCCCCNC(=O)CCC(=O)N([O-])CCCCCNC(=O)CCC(=O)N([O-])CCCCCN.[89Zr+4],radio-TLC,aqueous buffer,"3 d, pH 7.2, 37 °C, 89Zr-labelled complex, together with: CoCl2 10-fold excess",,intact complex,96.7 ± 2.3%
O=C(Nc1cnccc1-c1ccc([18F])nc1)c1ccnc(NC(=O)C2CC2)c1,,"FVB/NJ mice (both sexes), bone","intravenous, dose not given, 120 min",,SUV,0.254
O=C(O)c1ccc(NC2=C/C(=N/S(=O)(=O)c3ccc4ccccc4c3)c3ccccc3C2=O)cc1,dynamic light scattering,buffer,20 µM,,hydrodynamic radius,12.5 nm
Cc1nn(-c2nc3c(F)cc(F)cc3s2)c(O)c1C(c1ccc(C(F)(F)F)cc1)c1c(C)nn(-c2nc3c(F)cc(F)cc3s2)c1O,,"ICR mouse, plasma","intravenous, 5 mg/kg",,terminal half-life,4.36 h and 8.85 h and 13.4 h
C=CC(=O)Nc1cc(Nc2nccc(-c3c[nH]c4ccccc34)n2)c(OC)cc1N(C)CCN(C)C,,human plasma,"24 h, storage stability, low QC sample",,recovery,56.4%
CN1CCC[C@]1(C)/C=C/S(=O)(=O)NC(=O)Nc1c2c(cc3c1CCC3O)CCC2 (some centres unmarked),,"human, plasma","oral, 12.5 mg twice daily of parent drug, day 1, metabolite of dosed drug",,AUC(0-24),146 µg·h/mL
Cc1cc(-c2ccc(C(=O)[C@@H]3CCCC[C@H]3C(=O)Nc3cnn4c3C(=O)NCC4)cc2)[nH]n1,,"human, faeces","oral, 200 mg, 96-120 h",relative to: dose,radioactivity recovery per interval,2.08% and 12.7% and 1.02% and 0.52%
CN1CCC[C@]1(C)/C=C/S(=O)(=O)NC(=O)Nc1c2c(cc3c1CC(O)C3)CCC2 (some centres unmarked),,"human, plasma","oral, 12.5 mg twice daily of parent drug, day 14, metabolite of dosed drug",,AUC(0-24),31.1 µg·h/mL
O=S1(=O)CC2CCCCC2CS1 (centres unmarked),"phase solubility, NMR",water,"25 °C, together with: hydroxypropyl-β-cyclodextrin 457 mM",,solubility,49 mM
[2H]C([2H])([18F])Oc1cc(C(=O)OCC2CCN(CCCC)CC2)ccc1N,PET,"rhesus monkey, whole brain","dose not given, average",,time to peak radioactivity,6 min
O=C([O-])CN1CCN(CC(=O)[O-])CCN(C(CO)C(O)CO)CCN(CC(=O)[O-])CC1.[Dy+3] (centres unmarked),ICP-MS,"cynomolgus monkey, feces",5 days post-injection,relative to: dose,cumulative fecal excretion,0.4%
[123I]c1ccc2nc(-c3ccc(-n4ccnn4)nc3)cn2c1,,"male Wistar rat, lung","intravenous, 4 MBq, 6 h",,tracer uptake,0.101 %ID/g
CC[C@H](C)[C@H](NC(=O)[C@H](CCC(N)=O)NC(=O)[C@@H](NC(=O)[C@@H]1CCCN1[C@@H]1CN(C(=O)[C@H](CCCCN)NC(=O)[C@H](CC(N)=O)NC(=O)[C@@H](NC(=O)[C@@H](NC(=O)[C@H](CCC(N)=O)NC(=O)[C@@H](N)C(C)C)[C@@H](C)CC)[C@@H](C)CC)CC[C@H]1NS(=O)(=O)c1ccc(C)cc1)C(C)C)C(=O)N[C@H](C(=O)N[C@@H](Cc1ccc(O)cc1)C(=O)N[C@@H](CCCCN)C(N)=O)C(C)C,circular dichroism,methanol,"125 µM, 20 °C",,beta-sheet content,63%
O=C(O)CCCOc1ccc([18F])cc1-c1cc(-c2ccccc2C(F)(F)F)n(-c2ccccc2)n1,OLINDA/EXM from mouse data,"human adults, skin",,,absorbed dose,5.83 µGy/MBq

# Excerpt of the above:
Structure (SMILES),assay,system,setting,scale,measurement,value
CN(C)C(=O)c1cccc(N2Cc3cn(Cc4cccc(F)c4)nc3C2)c1,metabolic stability,"human, liver microsomes",,,half-life,100 min
C=CC(=O)Nc1cc(Nc2nccc(-c3cn(C)c4ccccc34)n2)c(OC)cc1N(C)CCNC,,"human, dried blood spots","10 d, on ice, high QC level",,remaining compound,69.6%
Cc1cc(-c2ccc(C(=O)[C@@H]3CCCC[C@H]3C(=O)Nc3cnn4c3C(=O)NCC4)cc2)[nH]n1,,"human, faeces","oral, 200 mg, 96-120 h",relative to: dose,radioactivity recovery per interval,2.08% and 12.7% and 1.02% and 0.52%
Cc1noc(C)c1Cn1cc(N2C(=O)CN(Cc3cccc(O[C@@H]4O[C@H](C(=O)O)[C@@H](O)[C@H](O)[C@H]4O)c3)C2=O)cn1,,"Sprague-Dawley rat, male","oral, 30 mg/kg of parent drug, 12 h",,plasma concentration,105 ng/mL
O=S1(=O)CC2CCCCC2CS1 (centres unmarked),"phase solubility, NMR",water,"25 °C, together with: hydroxypropyl-β-cyclodextrin 457 mM",,solubility,49 mM
CC(C)(O)c1ncc([S@](N)(=O)=NC(=O)Nc2c3c(cc4c2CCC4)CCC3)s1,item: infections and infestations,healthy human,"oral, 30 mg, 14 days, CS formulation, once daily",,subjects with TEAEs,17%
